Results pooled from the literature.
Each numbered part is a random draw from the data of one study; scales do not carry over between parts. Several values in a cell are separate wells, animals, samples, runs or records.
Sequence of UniProt Q9BX84 (whole entry, looked up): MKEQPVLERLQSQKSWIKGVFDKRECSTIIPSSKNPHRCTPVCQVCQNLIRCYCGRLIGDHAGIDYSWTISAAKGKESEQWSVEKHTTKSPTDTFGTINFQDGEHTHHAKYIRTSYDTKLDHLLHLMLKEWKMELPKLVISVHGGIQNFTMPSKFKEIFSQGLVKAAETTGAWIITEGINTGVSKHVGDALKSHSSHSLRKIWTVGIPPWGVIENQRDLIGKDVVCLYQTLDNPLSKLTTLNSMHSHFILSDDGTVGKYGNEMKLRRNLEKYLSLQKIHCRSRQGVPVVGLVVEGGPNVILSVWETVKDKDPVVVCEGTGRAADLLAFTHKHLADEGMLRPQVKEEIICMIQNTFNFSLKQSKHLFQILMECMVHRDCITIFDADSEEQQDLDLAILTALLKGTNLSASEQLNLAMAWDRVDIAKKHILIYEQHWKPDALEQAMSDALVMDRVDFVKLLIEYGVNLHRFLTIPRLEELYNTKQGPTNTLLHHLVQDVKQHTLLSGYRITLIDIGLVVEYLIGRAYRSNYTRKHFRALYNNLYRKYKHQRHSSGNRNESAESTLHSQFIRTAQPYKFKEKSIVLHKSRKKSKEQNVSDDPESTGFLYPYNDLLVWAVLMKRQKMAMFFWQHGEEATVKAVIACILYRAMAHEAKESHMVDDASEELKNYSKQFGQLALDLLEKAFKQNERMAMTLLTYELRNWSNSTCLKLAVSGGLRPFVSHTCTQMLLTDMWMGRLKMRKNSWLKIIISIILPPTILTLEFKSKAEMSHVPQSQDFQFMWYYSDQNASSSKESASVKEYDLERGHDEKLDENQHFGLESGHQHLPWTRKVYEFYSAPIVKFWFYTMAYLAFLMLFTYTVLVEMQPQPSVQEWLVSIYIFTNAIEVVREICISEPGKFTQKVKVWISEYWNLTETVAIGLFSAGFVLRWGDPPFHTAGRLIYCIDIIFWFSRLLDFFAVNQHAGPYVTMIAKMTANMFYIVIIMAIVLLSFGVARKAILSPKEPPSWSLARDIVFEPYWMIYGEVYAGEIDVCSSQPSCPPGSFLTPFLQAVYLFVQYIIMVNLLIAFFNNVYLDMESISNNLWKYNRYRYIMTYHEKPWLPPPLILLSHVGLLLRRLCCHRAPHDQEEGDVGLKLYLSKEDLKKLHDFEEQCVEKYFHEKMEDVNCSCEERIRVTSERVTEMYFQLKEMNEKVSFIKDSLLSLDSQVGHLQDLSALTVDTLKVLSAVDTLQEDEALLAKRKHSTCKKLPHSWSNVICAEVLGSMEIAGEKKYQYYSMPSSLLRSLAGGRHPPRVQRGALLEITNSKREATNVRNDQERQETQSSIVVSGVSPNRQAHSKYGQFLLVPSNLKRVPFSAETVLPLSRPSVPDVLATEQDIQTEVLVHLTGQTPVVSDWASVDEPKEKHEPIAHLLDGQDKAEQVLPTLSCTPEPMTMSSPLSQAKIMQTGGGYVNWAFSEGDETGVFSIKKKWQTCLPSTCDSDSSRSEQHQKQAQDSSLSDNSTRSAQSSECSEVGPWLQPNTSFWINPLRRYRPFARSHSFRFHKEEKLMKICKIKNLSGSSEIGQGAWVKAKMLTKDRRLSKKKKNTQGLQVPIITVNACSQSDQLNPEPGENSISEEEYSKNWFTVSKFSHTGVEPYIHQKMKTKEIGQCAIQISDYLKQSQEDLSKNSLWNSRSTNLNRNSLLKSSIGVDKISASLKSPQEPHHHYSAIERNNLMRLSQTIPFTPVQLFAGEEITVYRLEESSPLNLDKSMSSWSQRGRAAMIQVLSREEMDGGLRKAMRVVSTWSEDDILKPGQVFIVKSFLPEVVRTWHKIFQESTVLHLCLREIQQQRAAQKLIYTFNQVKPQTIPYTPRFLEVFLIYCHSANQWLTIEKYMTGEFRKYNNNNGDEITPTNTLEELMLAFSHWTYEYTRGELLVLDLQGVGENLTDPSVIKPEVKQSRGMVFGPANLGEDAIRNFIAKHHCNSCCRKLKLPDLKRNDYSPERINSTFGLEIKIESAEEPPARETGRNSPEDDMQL
Sequence of UniProt O15075 (whole entry, looked up): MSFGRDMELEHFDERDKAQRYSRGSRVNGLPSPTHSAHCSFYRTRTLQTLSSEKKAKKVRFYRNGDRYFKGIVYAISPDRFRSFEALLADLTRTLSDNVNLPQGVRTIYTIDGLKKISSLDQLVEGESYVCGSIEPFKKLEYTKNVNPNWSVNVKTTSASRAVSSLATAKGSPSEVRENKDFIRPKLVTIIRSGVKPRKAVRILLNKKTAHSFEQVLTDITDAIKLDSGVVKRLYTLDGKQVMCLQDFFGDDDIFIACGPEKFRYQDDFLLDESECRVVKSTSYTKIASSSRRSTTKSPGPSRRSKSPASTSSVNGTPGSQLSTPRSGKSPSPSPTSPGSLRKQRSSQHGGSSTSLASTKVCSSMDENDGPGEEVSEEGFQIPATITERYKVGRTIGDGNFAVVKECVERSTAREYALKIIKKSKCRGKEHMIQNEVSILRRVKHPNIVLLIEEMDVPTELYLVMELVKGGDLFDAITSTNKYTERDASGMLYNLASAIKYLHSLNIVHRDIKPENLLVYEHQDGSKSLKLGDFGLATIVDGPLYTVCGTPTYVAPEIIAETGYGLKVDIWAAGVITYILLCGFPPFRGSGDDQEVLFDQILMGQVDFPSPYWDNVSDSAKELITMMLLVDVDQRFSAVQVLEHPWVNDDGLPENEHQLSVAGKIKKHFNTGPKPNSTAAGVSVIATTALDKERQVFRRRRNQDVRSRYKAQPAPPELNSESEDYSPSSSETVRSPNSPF
Sequence of UniProt O60331 (whole entry, looked up): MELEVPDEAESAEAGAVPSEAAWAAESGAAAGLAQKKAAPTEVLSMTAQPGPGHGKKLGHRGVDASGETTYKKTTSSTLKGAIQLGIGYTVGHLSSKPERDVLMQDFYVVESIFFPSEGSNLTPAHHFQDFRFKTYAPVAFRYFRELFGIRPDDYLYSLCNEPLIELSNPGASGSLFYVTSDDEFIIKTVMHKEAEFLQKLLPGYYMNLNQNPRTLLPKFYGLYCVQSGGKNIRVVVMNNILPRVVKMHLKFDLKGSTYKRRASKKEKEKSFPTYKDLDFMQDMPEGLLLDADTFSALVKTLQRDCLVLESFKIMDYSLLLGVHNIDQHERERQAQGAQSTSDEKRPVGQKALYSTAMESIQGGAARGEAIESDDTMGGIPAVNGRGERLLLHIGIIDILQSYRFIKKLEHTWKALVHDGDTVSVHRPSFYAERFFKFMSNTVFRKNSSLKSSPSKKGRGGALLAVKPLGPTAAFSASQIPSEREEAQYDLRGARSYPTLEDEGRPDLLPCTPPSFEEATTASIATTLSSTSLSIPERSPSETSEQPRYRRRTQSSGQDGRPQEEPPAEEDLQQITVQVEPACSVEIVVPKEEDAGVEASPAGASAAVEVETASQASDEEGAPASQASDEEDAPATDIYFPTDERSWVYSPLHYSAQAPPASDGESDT
Sequence of UniProt P54764 (whole entry, looked up): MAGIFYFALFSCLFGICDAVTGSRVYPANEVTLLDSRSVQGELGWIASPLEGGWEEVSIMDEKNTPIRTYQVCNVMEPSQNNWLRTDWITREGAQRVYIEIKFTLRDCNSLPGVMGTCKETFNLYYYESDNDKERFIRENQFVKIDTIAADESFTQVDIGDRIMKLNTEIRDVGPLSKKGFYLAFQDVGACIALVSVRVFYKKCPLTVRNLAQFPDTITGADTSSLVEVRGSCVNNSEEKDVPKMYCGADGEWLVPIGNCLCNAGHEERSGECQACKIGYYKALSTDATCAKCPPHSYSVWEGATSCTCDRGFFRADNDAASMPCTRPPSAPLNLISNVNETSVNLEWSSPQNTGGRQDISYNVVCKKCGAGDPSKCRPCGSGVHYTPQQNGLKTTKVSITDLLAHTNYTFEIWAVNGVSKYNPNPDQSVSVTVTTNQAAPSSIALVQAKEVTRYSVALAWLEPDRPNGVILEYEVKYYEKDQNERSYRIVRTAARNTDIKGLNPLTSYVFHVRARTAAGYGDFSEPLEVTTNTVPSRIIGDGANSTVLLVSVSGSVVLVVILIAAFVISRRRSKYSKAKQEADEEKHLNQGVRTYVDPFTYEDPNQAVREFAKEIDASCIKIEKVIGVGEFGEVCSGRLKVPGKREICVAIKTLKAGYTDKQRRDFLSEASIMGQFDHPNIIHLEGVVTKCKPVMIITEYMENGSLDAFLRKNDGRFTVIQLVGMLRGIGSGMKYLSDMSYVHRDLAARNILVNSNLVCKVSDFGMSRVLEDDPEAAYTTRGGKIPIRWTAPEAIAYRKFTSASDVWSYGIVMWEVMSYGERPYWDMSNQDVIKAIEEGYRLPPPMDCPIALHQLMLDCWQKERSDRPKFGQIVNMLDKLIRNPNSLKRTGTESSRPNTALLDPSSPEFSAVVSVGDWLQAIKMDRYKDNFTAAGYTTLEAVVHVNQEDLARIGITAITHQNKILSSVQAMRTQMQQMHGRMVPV
Sequence of UniProt Q92772 (whole entry, looked up): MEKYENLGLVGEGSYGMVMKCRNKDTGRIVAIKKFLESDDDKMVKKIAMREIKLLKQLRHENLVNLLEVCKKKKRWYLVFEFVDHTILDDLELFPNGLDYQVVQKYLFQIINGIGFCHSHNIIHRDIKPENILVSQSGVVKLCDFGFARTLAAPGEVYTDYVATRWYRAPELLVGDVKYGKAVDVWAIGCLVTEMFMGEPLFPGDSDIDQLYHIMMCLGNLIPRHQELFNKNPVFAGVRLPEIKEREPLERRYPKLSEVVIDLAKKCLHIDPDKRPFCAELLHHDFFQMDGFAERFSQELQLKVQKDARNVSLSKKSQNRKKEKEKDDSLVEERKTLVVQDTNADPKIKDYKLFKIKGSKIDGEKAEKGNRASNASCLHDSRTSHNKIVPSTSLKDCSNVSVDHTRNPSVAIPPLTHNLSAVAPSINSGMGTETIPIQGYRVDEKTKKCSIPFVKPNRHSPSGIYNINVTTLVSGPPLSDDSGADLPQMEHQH

Series 1 — sample: 1,9-decadiene/PBS; pH: 7.4
SMILES	logD
CC(C)C[C@@H]1NC(=O)[C@H](C)NC(=O)[C@@H](C(C)C)NC(=O)[C@H](C(C)C)NC(=O)[C@H](CC(C)C)NC(=O)[C@@H](CC(C)C)NC(=O)[C@H](CC(C)C)NC1=O	0.474
CC(C)C[C@@H]1NC(=O)[C@H](CC(C)C)NC(=O)[C@H](CC(C)C)NC(=O)[C@H](C(C)C)NC(=O)[C@@H](CCC(=O)N2CCCC2)NC(=O)[C@H](Cc2cscn2)NC(=O)[C@H](C)NC1=O	-1.77
CC(C)C[C@@H]1NC(=O)[C@H](Cc2cscn2)NC(=O)[C@H](CC(C)C)NC(=O)[C@@H](CCC(=O)N2CCCC2)NC(=O)[C@H](CC(C)C)NC(=O)[C@@H](CC(C)C)NC(=O)[C@H](CC(C)C)NC1=O	0.0857
CC(C)C[C@@H]1NC(=O)[C@H](C)NC(=O)[C@H](Cc2cscn2)NC(=O)[C@H](CC(C)C)NC(=O)[C@H](C(C)C)NC(=O)[C@H](CC(C)C)NC(=O)[C@@H](CC(C)C)NC1=O	-0.71
CC(C)C[C@@H]1NC(=O)[C@H](CCC(=O)N2CCCC2)NC(=O)[C@H](CC(C)C)NC(=O)[C@@H](Cc2cscn2)NC(=O)[C@H](CC(C)C)NC(=O)[C@@H](CC(C)C)NC(=O)[C@H](CC(C)C)NC1=O	-0.333
CC(C)C[C@@H]1NC(=O)[C@H](CC(C)C)NC(=O)[C@H](CC(C)C)NC(=O)[C@H](CC(C)C)NC(=O)[C@@H](Cc2cscn2)NC(=O)[C@H](Cc2cscn2)NC(=O)[C@H](CCC(=O)N2CCCC2)NC1=O	-1.4
CC(C)C[C@@H]1NC(=O)[C@H](CC(C)C)NC(=O)[C@H](CC(C)C)NC(=O)[C@H](C(C)C)NC(=O)[C@H](C)NC(=O)[C@H](CCC(=O)N2CCCC2)NC(=O)[C@H](C)NC1=O	-2.15
CC(C)C[C@@H]1NC(=O)[C@H](Cc2cscn2)NC(=O)[C@H](C)NC(=O)[C@@H](CC(C)C)NC(=O)[C@@H](CCC(=O)N2CCCC2)NC(=O)[C@H](CC(C)C)NC(=O)[C@@H](CC(C)C)NC1=O	-0.927

Series 2
SMILES: CC(C)C[C@@H]1NC(=O)[C@@H](N(C)C(=O)[C@H](CC2CCC2)NC(=O)[C@@H]2C[C@@H](F)CN2C(=O)C2(C(F)(F)F)CC(F)(F)C2)CCCCNC(=O)C2(CC2)NC(=O)[C@H](Cc2cc(Cl)ccc2Cl)N(C)C1=O
cell line	method	tested at	time	relative to	cell count
NCI-H446 sgCtrl	dose-response	2 nM	6 d	DMSO-treated	0.296 and 0.334 and 0.382
HCC4006	Vi-Cell counting	600 nM	6 days	DMSO	0.257 and 0.333 and 0.273
NCI-H82	Vi-Cell counting	600 nM	6 days	DMSO	0.73 and 0.75 and 0.85
A549	Vi-Cell counting	20 nM	6 days	DMSO	0.978 and 0.697 and 0.914
NCI-H82	Vi-Cell counting	200 nM	6 days	DMSO	1 and 0.98 and 0.82
A549	Vi-Cell counting	600 nM	6 days	DMSO	0.73 and 0.597 and 0.464
HCC4006	Vi-Cell counting	60 nM	6 days	DMSO	1 and 0.828 and 0.899

Series 3 — observed: cell-free assay; method: competition with immobilised ligand; tested at: 1 µM
Compound: Cc1cc(NC(=O)c2cccc(S(F)(F)(F)(F)F)c2)cc(-n2ccn3nc(-c4cccnc4)cc23)c1
target	remaining binding [%]
FGR (Homo sapiens, UniProt P09769)	100
PIP5K1C (Homo sapiens, UniProt O60331)	100
EPHA4 (Homo sapiens, UniProt P54764)	76
KIT (Homo sapiens, UniProt P10721, V559D)	73.5
SLK (Homo sapiens, UniProt Q9H2G2)	95.2
CDKL2 (Homo sapiens, UniProt Q92772)	100
TRPM6 (Homo sapiens, UniProt Q9BX84)	97
DCLK1 (Homo sapiens, UniProt O15075)	66.2

Single results of other studies
SMILES	target	observed	mode	tested at	relative to	measurement	value
COc1ccc2c(c[n+](C)c3c4cc5c(cc4ccc23)OCO5)c1OC	Tyrosine-protein kinase ABL2 (ABL2, Homo sapiens, UniProt P42684)	enzyme activity	inhibitor	0.5 µM	control	remaining activity	96.7%

For quick reference, copied from above (series 2):
cell line	method	tested at	time	relative to	cell count
NCI-H82	Vi-Cell counting	200 nM	6 days	DMSO	1 and 0.98 and 0.82
A549	Vi-Cell counting	600 nM	6 days	DMSO	0.73 and 0.597 and 0.464
HCC4006	Vi-Cell counting	60 nM	6 days	DMSO	1 and 0.828 and 0.899
